Published values collected from several papers.
Protocols differ between the studies behind these lines.
Target: Cytochrome P450 3A4 (CYP3A4, Homo sapiens, UniProt P08684)
Sequence of UniProt P08684 (whole entry, looked up): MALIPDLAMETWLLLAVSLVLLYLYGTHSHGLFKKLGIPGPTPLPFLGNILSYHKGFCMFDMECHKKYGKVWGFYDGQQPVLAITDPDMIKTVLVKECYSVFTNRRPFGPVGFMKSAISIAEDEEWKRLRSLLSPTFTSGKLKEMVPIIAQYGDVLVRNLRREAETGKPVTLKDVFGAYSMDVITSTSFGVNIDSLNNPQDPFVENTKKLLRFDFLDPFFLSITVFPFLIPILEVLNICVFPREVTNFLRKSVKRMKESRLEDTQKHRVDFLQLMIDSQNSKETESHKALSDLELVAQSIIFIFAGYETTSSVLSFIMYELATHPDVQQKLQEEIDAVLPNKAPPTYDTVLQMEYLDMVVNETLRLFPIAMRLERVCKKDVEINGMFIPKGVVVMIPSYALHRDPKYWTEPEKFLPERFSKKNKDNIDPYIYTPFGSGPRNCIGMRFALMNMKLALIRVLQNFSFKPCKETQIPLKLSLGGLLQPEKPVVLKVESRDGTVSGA

| Compound | test | system | conditions | endpoint | value |
| --- | --- | --- | --- | --- | --- |
| Cc1cc(Nc2ncnc3ccc(NC4=NC(C)(C)CO4)cc23)ccc1Oc1ccn2ncnc2c1 |  | human, plasma | oral, 300 mg, day 1, single dose alone | CL/F, mean | 93.5 L/h |
| CC[C@H]1[C@@H](O)[C@@H]2[C@H](CC[C@]3(C)[C@@H]([C@H](C)CCNC(=O)NS(=O)(=O)c4ccc(C(C)(C)C)cc4)CC[C@@H]23)[C@@]2(C)CC[C@@H](O)C[C@@H]12 |  | human, plasma | 10 mg, day 1, compound alone | AUC(0-inf) geometric mean | 394 ng·h/mL |
| CCC(C)n1ncn(-c2ccc(N3CCN(c4ccc(OCC5COC(Cn6cncn6)(c6ccc(Cl)cc6Cl)O5)cc4)CC3)cc2)c1=O (centres unmarked) |  | human, both sexes, plasma | oral, 200 mg, multiple doses, added: pirtobrutinib | Cmax | 574 ng/mL |
| C=CC(=O)Nc1cc(Nc2nccc(-c3cn(C)c4ccccc34)n2)c(OCC(F)(F)F)nc1N(C)CCNC | substrate depletion | recombinant human CYP | 1 µM | intrinsic clearance | 1 µL/min/pmol |
| CCCCC1=NC2(CCCC2)C(=O)N1Cc1ccc(-c2ccccc2S(=O)(=O)Nc2noc(C)c2C)c(COCC)c1 | mechanism-based inhibitor, unbound apparent |  |  | KI | 4.04 µM |
| Cn1cncc1[C@@](N)(c1ccc(Cl)cc1)c1ccc2c(c1)c(-c1cccc(Cl)c1)cc(=O)n2C |  | human liver microsomes | 1 µM, added: ketoconazole | share of CYP-mediated metabolism | 92.3% |
| C=CC(=O)N(C)CCOc1c(N)ncnc1-c1cc(F)cc(NC(=O)c2ccc(C3CC3)cc2F)c1C |  | recombinant enzyme |  | fraction unbound in incubation | 0.96 |
| C=C(F)C(=O)N1CCN(c2nc(OC[C@@H]3CCCN3C)nc3c2CCN(c2cccc4cccc(Cl)c24)C3)C[C@@H]1CC#N |  | healthy volunteers, plasma | 200 mg, geometric mean, added: itraconazole once daily | AUC(0-t) | 7400 ng·h/mL |

Excerpt of the above:
| Compound | test | system | conditions | endpoint | value |
| --- | --- | --- | --- | --- | --- |
| Cn1cncc1[C@@](N)(c1ccc(Cl)cc1)c1ccc2c(c1)c(-c1cccc(Cl)c1)cc(=O)n2C |  | human liver microsomes | 1 µM, added: ketoconazole | share of CYP-mediated metabolism | 92.3% |
